Published values collected from several papers.
Each line is one published result; not all experiments were run side by side. Several values in a cell are separate wells, animals, samples, runs or records. ± gives the spread as reported.
prp N63Q: Ribosomal processing cysteine protease Prp (prp, Staphylococcus aureus, UniProt Q2FXS9, N63Q)
UniProt Q96PY6, sequence (whole entry, looked up): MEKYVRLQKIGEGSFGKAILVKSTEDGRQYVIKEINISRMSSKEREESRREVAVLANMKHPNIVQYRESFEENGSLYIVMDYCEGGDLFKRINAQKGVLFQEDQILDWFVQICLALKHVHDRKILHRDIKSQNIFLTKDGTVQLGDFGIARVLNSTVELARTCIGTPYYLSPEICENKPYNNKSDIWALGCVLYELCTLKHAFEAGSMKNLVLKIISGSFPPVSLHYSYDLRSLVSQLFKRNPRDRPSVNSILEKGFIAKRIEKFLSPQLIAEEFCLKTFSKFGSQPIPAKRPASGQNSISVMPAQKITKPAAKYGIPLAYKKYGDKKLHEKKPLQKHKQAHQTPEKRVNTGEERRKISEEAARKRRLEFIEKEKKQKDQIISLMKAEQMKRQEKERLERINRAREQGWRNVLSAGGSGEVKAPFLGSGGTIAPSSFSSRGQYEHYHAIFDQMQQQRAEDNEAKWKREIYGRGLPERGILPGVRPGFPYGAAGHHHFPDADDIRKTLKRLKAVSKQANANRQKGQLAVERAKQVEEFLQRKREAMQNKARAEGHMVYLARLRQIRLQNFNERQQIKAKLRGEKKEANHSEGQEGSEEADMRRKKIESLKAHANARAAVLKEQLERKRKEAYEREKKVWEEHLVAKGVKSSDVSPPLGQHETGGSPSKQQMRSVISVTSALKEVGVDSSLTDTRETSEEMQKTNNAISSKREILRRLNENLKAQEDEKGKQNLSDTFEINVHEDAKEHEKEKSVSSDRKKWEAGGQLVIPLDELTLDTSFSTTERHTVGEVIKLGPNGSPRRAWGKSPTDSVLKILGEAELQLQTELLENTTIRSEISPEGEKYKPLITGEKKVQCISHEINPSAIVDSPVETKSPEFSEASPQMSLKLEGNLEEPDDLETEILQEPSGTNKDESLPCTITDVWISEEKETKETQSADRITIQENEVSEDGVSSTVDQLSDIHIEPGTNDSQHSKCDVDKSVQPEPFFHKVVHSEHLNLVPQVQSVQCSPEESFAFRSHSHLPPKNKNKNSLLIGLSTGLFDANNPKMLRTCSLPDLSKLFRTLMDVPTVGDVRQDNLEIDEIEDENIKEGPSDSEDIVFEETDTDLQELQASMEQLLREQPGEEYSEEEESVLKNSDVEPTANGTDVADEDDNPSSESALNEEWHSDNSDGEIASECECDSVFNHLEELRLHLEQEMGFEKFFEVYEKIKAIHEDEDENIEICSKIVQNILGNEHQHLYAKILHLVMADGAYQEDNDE
UniProt Q09013, sequence (whole entry, looked up): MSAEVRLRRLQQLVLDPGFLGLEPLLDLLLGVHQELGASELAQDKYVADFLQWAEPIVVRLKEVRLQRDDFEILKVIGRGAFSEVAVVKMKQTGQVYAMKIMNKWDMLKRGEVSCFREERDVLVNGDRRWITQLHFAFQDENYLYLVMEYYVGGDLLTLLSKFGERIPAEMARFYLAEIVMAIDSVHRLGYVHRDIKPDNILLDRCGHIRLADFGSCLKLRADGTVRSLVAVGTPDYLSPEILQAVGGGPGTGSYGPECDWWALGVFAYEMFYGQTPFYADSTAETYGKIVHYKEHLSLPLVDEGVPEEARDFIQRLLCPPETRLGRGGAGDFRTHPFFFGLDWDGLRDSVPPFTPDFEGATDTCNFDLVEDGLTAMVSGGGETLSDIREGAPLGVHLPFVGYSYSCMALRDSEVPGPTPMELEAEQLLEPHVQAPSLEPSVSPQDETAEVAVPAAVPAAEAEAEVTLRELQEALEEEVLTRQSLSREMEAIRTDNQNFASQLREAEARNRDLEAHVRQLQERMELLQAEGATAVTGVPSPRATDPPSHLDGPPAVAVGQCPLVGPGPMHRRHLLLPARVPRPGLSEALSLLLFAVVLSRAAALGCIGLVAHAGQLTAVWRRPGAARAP
UniProt Q15349, sequence (whole entry, looked up): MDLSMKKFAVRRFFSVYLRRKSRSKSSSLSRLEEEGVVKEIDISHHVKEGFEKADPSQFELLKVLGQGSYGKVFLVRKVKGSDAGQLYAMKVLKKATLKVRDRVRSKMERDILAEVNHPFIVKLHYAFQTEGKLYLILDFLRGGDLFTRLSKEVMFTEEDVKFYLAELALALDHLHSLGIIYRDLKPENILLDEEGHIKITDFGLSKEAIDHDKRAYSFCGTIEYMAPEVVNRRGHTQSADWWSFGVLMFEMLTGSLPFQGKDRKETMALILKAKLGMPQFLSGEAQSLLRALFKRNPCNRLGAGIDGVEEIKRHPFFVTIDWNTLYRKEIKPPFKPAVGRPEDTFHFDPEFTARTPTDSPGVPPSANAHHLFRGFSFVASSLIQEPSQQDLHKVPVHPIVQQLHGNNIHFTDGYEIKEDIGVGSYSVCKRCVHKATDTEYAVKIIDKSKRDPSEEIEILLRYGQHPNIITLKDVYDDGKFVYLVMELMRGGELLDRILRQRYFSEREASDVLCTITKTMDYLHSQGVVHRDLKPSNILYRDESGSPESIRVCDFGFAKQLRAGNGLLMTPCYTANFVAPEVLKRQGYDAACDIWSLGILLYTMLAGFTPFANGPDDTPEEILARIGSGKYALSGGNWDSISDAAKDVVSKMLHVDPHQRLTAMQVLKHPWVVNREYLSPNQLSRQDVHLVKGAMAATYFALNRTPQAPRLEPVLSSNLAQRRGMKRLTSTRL
UniProt Q9NQS5, sequence (whole entry, looked up): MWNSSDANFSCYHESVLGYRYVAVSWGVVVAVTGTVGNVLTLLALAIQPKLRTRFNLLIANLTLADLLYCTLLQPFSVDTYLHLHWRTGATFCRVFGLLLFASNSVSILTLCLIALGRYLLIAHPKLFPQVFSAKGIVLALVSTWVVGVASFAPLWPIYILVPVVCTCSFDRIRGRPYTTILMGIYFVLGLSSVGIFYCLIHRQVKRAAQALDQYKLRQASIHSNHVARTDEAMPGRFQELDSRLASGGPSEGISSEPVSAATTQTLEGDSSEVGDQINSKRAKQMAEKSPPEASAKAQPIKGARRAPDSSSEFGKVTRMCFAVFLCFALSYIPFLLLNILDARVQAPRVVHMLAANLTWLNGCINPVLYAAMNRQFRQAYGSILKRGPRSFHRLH
UniProt Q99788, sequence (whole entry, looked up): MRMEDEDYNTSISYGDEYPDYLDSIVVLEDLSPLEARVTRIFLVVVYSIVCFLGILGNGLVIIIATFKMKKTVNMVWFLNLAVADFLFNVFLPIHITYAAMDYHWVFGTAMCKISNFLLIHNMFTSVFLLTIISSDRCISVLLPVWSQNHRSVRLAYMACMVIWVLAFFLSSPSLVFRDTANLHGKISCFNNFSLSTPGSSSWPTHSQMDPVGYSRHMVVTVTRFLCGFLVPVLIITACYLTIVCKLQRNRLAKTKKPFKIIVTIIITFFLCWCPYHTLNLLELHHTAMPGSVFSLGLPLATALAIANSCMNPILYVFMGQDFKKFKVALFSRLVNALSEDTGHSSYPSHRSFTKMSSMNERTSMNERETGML
UniProt P17812, sequence (whole entry, looked up): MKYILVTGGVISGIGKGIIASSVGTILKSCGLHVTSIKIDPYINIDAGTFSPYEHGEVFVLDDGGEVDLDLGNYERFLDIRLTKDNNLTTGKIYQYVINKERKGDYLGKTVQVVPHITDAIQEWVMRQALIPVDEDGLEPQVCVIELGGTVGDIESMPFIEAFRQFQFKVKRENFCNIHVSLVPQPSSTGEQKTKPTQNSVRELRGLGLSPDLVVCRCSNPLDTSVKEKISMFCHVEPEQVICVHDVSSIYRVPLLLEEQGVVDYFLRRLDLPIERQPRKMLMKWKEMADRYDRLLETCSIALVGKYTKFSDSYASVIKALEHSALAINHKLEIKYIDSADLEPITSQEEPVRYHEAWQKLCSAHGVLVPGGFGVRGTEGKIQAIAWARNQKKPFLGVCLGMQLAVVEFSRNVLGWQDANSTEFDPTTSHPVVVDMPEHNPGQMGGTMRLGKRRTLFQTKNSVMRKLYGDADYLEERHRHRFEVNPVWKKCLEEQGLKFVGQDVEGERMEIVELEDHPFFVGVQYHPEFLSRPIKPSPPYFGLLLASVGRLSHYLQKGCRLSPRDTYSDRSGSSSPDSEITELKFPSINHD
UniProt Q13557, sequence (whole entry, looked up): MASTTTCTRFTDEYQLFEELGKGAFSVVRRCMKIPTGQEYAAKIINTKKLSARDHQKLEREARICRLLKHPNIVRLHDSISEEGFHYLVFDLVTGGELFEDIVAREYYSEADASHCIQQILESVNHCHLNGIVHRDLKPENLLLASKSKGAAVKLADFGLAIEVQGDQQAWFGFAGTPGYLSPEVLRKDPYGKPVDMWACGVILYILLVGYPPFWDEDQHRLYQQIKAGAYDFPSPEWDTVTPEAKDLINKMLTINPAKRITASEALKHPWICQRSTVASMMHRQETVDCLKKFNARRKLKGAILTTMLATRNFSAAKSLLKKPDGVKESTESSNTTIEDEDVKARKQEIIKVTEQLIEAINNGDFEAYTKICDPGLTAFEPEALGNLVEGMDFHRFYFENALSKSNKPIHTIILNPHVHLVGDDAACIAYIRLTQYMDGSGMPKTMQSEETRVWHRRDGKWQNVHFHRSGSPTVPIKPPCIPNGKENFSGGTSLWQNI

| Structure (SMILES) | tested on | assay | test system | setting | scale | quantity | value |
| --- | --- | --- | --- | --- | --- | --- | --- |
| COc1cc(Nc2ncc(F)c(Nc3ccc4c(n3)NC(=O)C(C)(C)O4)n2)cc(OC)c1OC | RPS6KA2 (Homo sapiens, UniProt Q15349) | KINOMEscan |  | 10 µM, RSK3(Kin.Dom.1-N-terminal) |  | inhibition | 5% |
| Oc1ccc2c3c1O[C@H]1[C@@H](O)CC[C@@]4(O)[C@@H](C2)N(CC2CCC2)CC[C@]314 | GPR84 (Homo sapiens, UniProt Q9NQS5) | β-arrestin recruitment, TANGO luminescence |  | concentration not given | baseline: basal luminescence | log2 fold change | 0.436 |
| CN1CCN(c2cc(-c3ccncc3)c(-c3ccc4ccccc4c3)nn2)CC1 | CMKLR1 (Homo sapiens, UniProt Q99788) | antagonist, FLIPR |  | 10 µM |  | inhibition | 26.4% |
| COc1cccc2c1C(=O)c1c(O)c3c(c(O)c1C2=O)C[C@@](O)(C(=O)CO)C[C@@H]3O[C@H]1C[C@H](N)[C@H](O)[C@H](C)O1 | prp N63Q | enzyme activity, inhibitor |  | 10 µM, prp 21.4 nM, with: FITC peptide substrate 0.5 µM |  | inhibition | 1.2 ± 9.2% |
| C[C@H]1CN(c2n[nH]c3nc(N[C@H]4CC[C@H](NS(=O)(=O)CCC(F)(F)F)CC4)ncc23)CCO1 | CTP synthase 1 (Homo sapiens, UniProt P17812) | Kinobeads competition, refers to: CTPS |  | 0.032 µM, unit not given | baseline: vehicle | remaining binding | 1.04 |
| COc1cc2c(Oc3ccc4[nH]c(C)cc4c3F)ccnc2cc1OCC1(N)CC1 |  |  | paediatric recurrent refractory sarcoma | 10 mg |  | grade 3 Hyperthyroidism | 0% |
| O=C(Nc1cnccc1Cl)N1CCN(Cc2ccc3c(c2)OC(F)(F)O3)CC1 | CAMK2D (Homo sapiens, UniProt Q13557) | enzyme activity, inhibitor |  | 50 µM, with: autocamtide-2 |  | inhibition | 11% |
| CC[C@H](C)[C@@H]1NC(=O)[C@@H]2CCCN2C(=O)[C@H](CC(C)C)NC(=O)[C@H](CC(C)C)NC(=O)CNC(=O)[C@@H](NC(=O)[C@@H](NC(=O)[C@H](CC(=O)O)NC(=O)CNC(=O)[C@@H](NC(=O)[C@H](C)NC(=O)CNC(=O)[C@H](CCCCN)NC(=O)[C@H](CC(C)C)NC(=O)[C@H](CC(C)C)NC(=O)[C@H](CCCCN)NC(=O)CNC(=O)[C@@H](NC(=O)[C@@H](N)CC(C)C)C(C)C)C(C)C)C(C)C)CSSC[C@@H](C(=O)O)NC1=O |  | RNA-seq, refers to: Zswim4 | mouse, traumatic brain injury model, frontal cortex and hippocampus | dose not given | baseline: TBI alone | log2 fold change | -1.3 |
| COc1ccc(N2C(=O)N(c3c(C)cccc3Cl)Cc3cnc(Nc4ccc(C5CCN(C)CC5)cc4OC)nc32)nc1 | NEK1 (Homo sapiens, UniProt Q96PY6) | kinase activity |  | 0.5 µM |  | inhibition | 5.55% |
| CO[C@H]1C[C@@H]2CC[C@@H](C)[C@@](O)(O2)C(=O)C(=O)N2CCCC[C@H]2C(=O)O[C@H]([C@H](C)C[C@@H]2CC[C@@H](OC(=O)NCCOCCOCCOCCOCCOCCOCCOCCOCCC(=O)N3CCc4cc(Cn5nc(-c6ccc7oc(N)nc7c6)c6c(N)ncnc65)ccc4C3)[C@H](OC)C2)C[C@@H](O)[C@H](C)/C=C(\C)[C@@H](O)[C@@H](OC)C(=O)[C@H](C)C[C@H](C)/C=C/C=C/C=C/1C |  |  | patients with advanced solid tumours | intravenous, 10 mg weekly, any grade |  | dysgeusia incidence | 25% |
| N[C@H]1C(O)O[C@H](CO)[C@@H](O)[C@@H]1O (stereo partly drawn) | prp N63Q | enzyme activity, inhibitor |  | 10 µM, prp 21.4 nM, with: FITC peptide substrate 0.5 µM |  | inhibition | -3.5 ± 14% |
| CN(C(=O)n1cnc(-c2ccc[n+]([O-])c2)c1)C1CCCCC1 | AMPA receptor, rat | binding |  | 50 µM, with: [3H]AMPA |  | inhibition | 6% |
| CCOC(=O)c1ccc(OC(=O)CCCCCNC(=N)N)cc1 | prp N63Q | enzyme activity, inhibitor |  | 10 µM, prp 21.4 nM, with: FITC peptide substrate 0.5 µM |  | inhibition | 35.6 ± 21.3% |
| O=C(Nc1cccnn1)N1CCC(=Cc2cccc(Oc3ccc(C(F)(F)F)cn3)c2)CC1 | DMPK (Homo sapiens, UniProt Q09013) | kinase activity, inhibitor |  | 50 µM, with: Axltide substrate |  | inhibition | -1% |
| CC(=O)NC[C@H]1[C@H](O)[C@H](O)[C@@H]2[C@H](O)C[C@@H](CO)N21 | β-N-acetylglucosaminidase | enzyme activity, inhibitor, colorimetric | Canavalia ensiformis | 0.161 nM, with: p-nitrophenyl GlcNAc substrate |  | inhibition | 18.5% and 18.7% |

Repeated from above:
| Structure (SMILES) | tested on | assay | test system | setting | scale | quantity | value |
| --- | --- | --- | --- | --- | --- | --- | --- |
| CC[C@H](C)[C@@H]1NC(=O)[C@@H]2CCCN2C(=O)[C@H](CC(C)C)NC(=O)[C@H](CC(C)C)NC(=O)CNC(=O)[C@@H](NC(=O)[C@@H](NC(=O)[C@H](CC(=O)O)NC(=O)CNC(=O)[C@@H](NC(=O)[C@H](C)NC(=O)CNC(=O)[C@H](CCCCN)NC(=O)[C@H](CC(C)C)NC(=O)[C@H](CC(C)C)NC(=O)[C@H](CCCCN)NC(=O)CNC(=O)[C@@H](NC(=O)[C@@H](N)CC(C)C)C(C)C)C(C)C)C(C)C)CSSC[C@@H](C(=O)O)NC1=O |  | RNA-seq, refers to: Zswim4 | mouse, traumatic brain injury model, frontal cortex and hippocampus | dose not given | baseline: TBI alone | log2 fold change | -1.3 |
